Results from different studies.
Every numbered part comes from another study and shows a few of its results, in no order.

Set 1 — technique: protein binding microarray; form: double-stranded DNA, one strand shown; sample: in vitro; concentration: not given; relative to: not given; direction: higher = stronger binding
Target: Histone acetyltransferase KAT6A, winged helix 1, GST fusion (KAT6A, Homo sapiens, UniProt Q92794, residues 1-85)
Setting: 8-mer, flanks averaged, mean of 2 arrays, mostly near background
Residues (chain): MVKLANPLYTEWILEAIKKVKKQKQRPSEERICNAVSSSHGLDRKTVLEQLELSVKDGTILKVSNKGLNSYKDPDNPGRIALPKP
Oligonucleotide | E-score
AAGTTTCC | -0.204
ACTATAAT | -0.046
ACATGATG | -0.145
CTTTCCTC | -0.124
AAGTCGCG | 0.163
CGTACTTC | 0.105
AAGAGGCT | -0.278
AAACCACG | -0.000545
GTGACAGA | -0.0693
ATATGATA | -0.121
ATCAGAAC | -0.113
CGTCGTAG | 0.101
CTTCCCTA | -0.0771
ATAAGGTC | -0.0818
AATATCTG | -0.213
AGCATGGA | -0.099
ACAGTGCT | -0.00171
AGATTTGA | -0.0909
AGTGCTAT | -0.243
AAAGGTGC | -0.136
GCAATCGC | 0.189
GGTTTGGA | -0.135
GAGTGGAA | -0.113
CATGAGGG | -0.102
AATCTAGA | -0.133

Set 2 — technique: universal PBM; form: double-stranded DNA, one strand shown; sample: in vitro; concentration: not given; direction: higher = stronger binding
Target: Sal-like protein 4, full length isoform B (SALL4, Homo sapiens, UniProt Q9UJQ4-2, residues 1-616)
Setting: 8-mer, flanks averaged, mean of replicates
Oligonucleotide | E-score
AAACGTTC | 0.0805
TAATTGTA | 0.344
CGGATCTA | -0.0819
GCGAGCGA | -0.228
AGAACGGA | -0.0111
CTCGGTGA | -0.116
TTACGCAA | 0.105
GTCTTCAC | -0.0887
AATAAGCA | 0.268
TCTGACAA | 0.101
ACAACCAT | 0.235
AGAATCAA | 0.0621
ACAGGGAA | -0.0968
ACGTTAGT | 0.116
AACTGGAG | -0.106
CGCGAACG | -0.135
AGTCAGAA | -0.0328
CTTGGAGA | -0.0455

Set 3 — technique: protein-binding microarray; form: double-stranded DNA, one strand shown; sample: in vitro; concentration: 250 nM; setting: 60-bp whole probe; with: salmon DNA 0.4 mg/ml; relative to: random background probes; direction: higher = stronger binding; shared flanks, not repeated: GCCTAGCAC … GTCTTGATTCGCTTGACGCTGCTG
Target: Interferon regulatory factor 5, full length, phosphomimetic (IRF5, Homo sapiens, UniProt Q13568-2, residues 1-514, K96S/S451D/S453D/S456D/S462D)
Oligonucleotide | log fluorescence
ACTCAGTAACATTATTGTAGGTGCTAG | 0.111 z-score
GACGGTCTCCTCCTCCTGACGTGCTAG | -0.291 z-score
GTAGTTTTCATTATTGTTTCGTGCTAG | 3.94 z-score
TCACATACGAGTTTCCATTTGTGCTAG | 1.31 z-score
CTGGGTATTTTTCTAAACCAGTGCTAG | 0.0927 z-score
GACGGTCTCCTTTTGCTGACGTGCTAG | -0.101 z-score
TCATTTTCCTTATTGCTTACTGTGCTA | 2 z-score
TTAGGTATCTTTCTCCTTTAGTGCTAG | 1.25 z-score
GACGCACTGGGTCTCGGGACGTGCTAG | -0.178 z-score
GACGGTTCCGGTTTCTGGACGTGCTAG | 1.57 z-score
GACGGACTCGACACTGGGGACGTGCTA | -0.346 z-score
TTAGGTCTCGGACGGGGTTAGTGCTAG | -0.224 z-score
AACGGTCTCGGTTTCGGGACGTGCTAG | 3.71 z-score
TTAGAACTGGGGTATCGATTGGTGCTA | 2.14 z-score
TTAGGTTTCGGGTTTCGGTTTGTGCTA | 9.87 z-score
TGAGGTCTCCTTATCCTTTAGTGCTAG | -0.151 z-score
GACGGACTGGGCCTCGGGACGTGCTAG | -0.625 z-score
TCAACTCTTCCTTTACTACTGTGCTAG | 0.629 z-score
ATAGGTTCCCTTTTCCTTTAGTGCTAG | 0.619 z-score
GACGGTCTCGGTATGGGGACGTGCTAG | 0.167 z-score
GGTCTTTTCGCTTTCTTTACGTGCTAG | 3.59 z-score
GACGGACGGCTTCTCCTGACGTGCTAG | -0.58 z-score
TTAGGTATGGACTTTCGGTTAGTGCTA | 9.31 z-score
GACGAACTGAGTATCTAGACGTGCTAG | 0.0385 z-score
TGCATTCCCTTTCTCAACCTGTGCTAG | 0.674 z-score

Set 4 — technique: RNA Bind-n-Seq; form: RNA; sample: in vitro; concentration: 1 µM; setting: whole 134-nt RNA, ends assumed; with: 150 mM KCl; relative to: input library; direction: higher = stronger binding
Target: Ras GTPase-activating protein-binding protein 1, C-terminal RGG region (G3BP1, Homo sapiens, UniProt Q13283)
UniProt Q13283, sequence (whole entry, looked up): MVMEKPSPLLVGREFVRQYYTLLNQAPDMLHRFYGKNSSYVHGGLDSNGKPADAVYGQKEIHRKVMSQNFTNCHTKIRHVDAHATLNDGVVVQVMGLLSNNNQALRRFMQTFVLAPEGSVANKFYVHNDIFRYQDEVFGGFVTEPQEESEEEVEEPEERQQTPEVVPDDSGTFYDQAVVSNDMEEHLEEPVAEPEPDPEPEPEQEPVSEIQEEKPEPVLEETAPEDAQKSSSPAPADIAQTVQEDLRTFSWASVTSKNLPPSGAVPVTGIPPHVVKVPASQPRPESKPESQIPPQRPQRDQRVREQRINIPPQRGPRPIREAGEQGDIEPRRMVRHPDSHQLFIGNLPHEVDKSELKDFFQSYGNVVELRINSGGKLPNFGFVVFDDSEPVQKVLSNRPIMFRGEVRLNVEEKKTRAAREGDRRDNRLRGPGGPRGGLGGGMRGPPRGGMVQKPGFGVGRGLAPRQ
Shared flanks, not repeated: GGGAGUUCUACAGUCCGACGAUC … UGGAAUUCUCGGGUGUCAAGG
Oligonucleotide | log2 enrichment
UGUGAGCGGAGCCUGGAGGAGCUGCUGCACUACGUGGGCCAGCUGCGGGCUGAGCUGGCCAGCGCAGGUGGGUGGCCACCCUUGCAAGUG | 0.038
CACAGACAACACGCACCCACACAGACACAGAGGGAAGGGGUUAAAAUGGGGACAGGGUGCACAGCAGGGCGGGGUAGGACCCCAGCCCCU | -0.447
ACCAUGCAGGUGGGCAUCUUUGGGAAGUGGGGCAAGGGGGGGAUAGGGAGGGGGGUAACACUUUGGGAAAAAGUGGUCCCAGGUCGUUUC | -1.16
GUCCUGUGCUACACAUCGUAUGUACCGAAUCGGGGUGGGGAAAAAAAGGGGUUUGGGGAAAGUAUUAUGUUACGCCGUUCGGAUCUGCAC | 1.93
ACCAUGCAGGUGGGCAUCUUUGGGAAGUGGGGCAAGGGGGGGAUAGGAAGGGGGGUAACACUUUGGGAACAGGUGGUCCCAGGUCGUUUC | 2.08
CCUCAAGUCCUGUGCUACACAUCGUAUGUACCGAAUCGGAGGAAAGGUUUGGAAAGUAUUAUGUUACGCCGUUCGGAUCUGCACUUCCAG | -0.989
CCUCAAGUCCUGUGCUACACAUCGUAUGUACCGAAUCGGGGCGGGCGGGCGGAAAGUAUUAUGUUACGCCGUUCGGAUCUGCACUUCCAG | 1.51
UUACAUUACCUGGUGAAAUAGACAUUGACAGUAUCUCCUAUGAAGAGCUUUCACCACCUGAUGAAGAGCCUGCCAAGAAUAAAAAGGAAA | -2.18
GCAGGAAGUAAAAACAAAUGGAAAUGCUUCGGAUAGCGGCAGGGGUGGGGGUUGCUAAGGAAAGGGUGGGAUGGGAGUGGGUAAAGAGUU | 0.552
CUCAAGUCCUGUGCUACACAUCGUAUGUACCGAAUCGGUUUUUUUGGAGGAGGAAAGUAUUAUGUUACGCCGUUCGGAUCUGCACUUCCA | -1.15
GUCCUGUGCUACACAUCGUAUGUACCGAAUCGGAAAAAAGGAAAAAAGGGAAAAAAGGGAAAGUAUUAUGUUACGCCGUUCGGAUCUGCA | -1.69
GCAGGAAGUAAAAACAAAUGGAAAUGCUUCGGAUAGUGGCAGGGGUGGGGGUUGCUAAGGAAAGGGUGGGAUGGGAGUGGCUAAAGAGUU | 1.59
CACAGACAACACGCACCCACACAGACACAGAGGGAAGGGGUUGGGAUGAAAACAGGGUGCACAGCAGGGCGGGGUAGGACCCCAGCCCCU | -0.294
CUCAAGUCCUGUGCUACACAUCGUAUGUACCGAAUCGGGGCGGGGCGGCGGGGAAAGUAUUAUGUUACGCCGUUCGGAUCUGCACUUCCA | 0.503

Set 5 — technique: RNA Bind-n-Seq; form: RNA; sample: in vitro; concentration: 365 nM; relative to: no-protein control; direction: higher = stronger binding
Target: RNA binding protein fox-1 homolog 2, RRM domain, GST-SBP tag (RBFOX2, Homo sapiens, UniProt O43251-10, residues 100-194)
Setting: natural RNA segment, single round, ends assumed
Shared flanks, not repeated: GGGAGUUCUACAGUCCGACGAUC … UGGAAUUCUCGGGUGCCAA
Target sequence (chain): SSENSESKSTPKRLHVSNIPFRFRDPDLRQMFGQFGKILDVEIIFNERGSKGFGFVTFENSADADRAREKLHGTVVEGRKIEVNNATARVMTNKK
Oligonucleotide | RBNS enrichment (R)
GCCCAACCCACCUUAGCAUGUAUCACUCUGUGGAGAAUAAAGCACCCUAUGUACACAGCCAAAAGCCGCACUGCCUGCGCCCCUGGAACCUGGGUCCGGCCUUCCUCAGC | 15.1
GACACACCAGAAGAGGGCAUCAGAUCCCAUUACAGAUGGUUGUGAGCCACCAUGUGGUUGCUUUAAGAUUUAUGUAUAUGAGUACACUGUGGCUGUCUCAGACACACCAG | 0.258
CCCCUAGCUGAGGCUCCCCCAGAAAACCCCUGGUUUUUUUUUUUUCCAGGGAGCUCAGUUUGAUCAUUCUGGGAAUUCUUGUCCUGCCAGCCUGGUGCGGCUGGGAUCAC | 0.396
UUGCAACUCUGUUCUUUGGAAAGAAUAAAAGCAUUUUUUUUCACUUGCUAACAUGCUCACAAAUGUGAGAGAAGAGUCAUUAAAAGCUUUACUUACUGGGUCAGUGCGUC | 0.66
CAGAACAAGUUACCUGUCACAUUGAAGAAAAGGGUAGGCACUAAAGGGAGAACACAGAAAGAAGAAUUUCUAAAAUAUUGGAUUUACUUCUUAUAUUGAGUCAGAUGCAU | 0.677
UAAAAAUAAAUGUGUAUGUGUGUACAUAUAUAUACACACACAUACACAUAUAUUAUGCAUGUGGUGAAAAGAAUUGGCUAGAUAGGGGAUUUUUCUGAACACUGCAAAAA | 6.11
CUGUAAAUGGGGGCUCCAUUAGUUCUGCUGCCGAGACUAAUAAAGAUUUGGUUGGCUCUAGCAGUAACUGUGGCUUGCUUUGUUCCCCCAGAAGGCCCUGUUUCCCUCUC | 0.637
UAAAGAGAGUUUUUUGGGGCCACCAAAUAUUUUGGAUCAUGCAGAGAAUAUAUAUUGUACUGUAGUAAUUUUGUAUUUACAUUUGUAUGAUGUGACAUAAUAGAUGUGAA | 0.617
GUAUUUUACAUGAAGCUGUAUAAUUAAUUGUCAUUAUUUUUGUUAGCAAAGAUUAAAUGUGUCAUUGGAAGCCAUCCCUUUUUUUACAUUUCAUACAACAGAAACCAGAA | 0.583
GAAUUUGGGGUAAGAGGAAGUGAGAUCUCCGCUUGCAGGUCAGCCCCUGCCUUGCAGGGCGGGCUGGCUUGACUCAGGCCCUGUGAGAUAGAGGGCCCAGCCCAGCCCCA | 0.685
AGAUAUGACCAGACGCAUCCUAAGAUGUUGAUUCUUACUGUGUUGUAUAAAAUAAAGUGUAGUUUACAAAAAAAAGAAACGUAAAAAAAAAAAACUACAUGCAAAACUGU | 2.06
UUAACUGGAAGAAAUUGUAUUGCUGCGUAGAAUCUGAACACACUGAGGCCACCUAGCAAGGUAGUAACUAGUCUAACCUGUGCUAACAUUAGGGCACAACCUGUUGGAUA | 0.433

For quick reference, copied from above (set 2):
Oligonucleotide | E-score
AGAACGGA | -0.0111
CTCGGTGA | -0.116
TTACGCAA | 0.105
GTCTTCAC | -0.0887
AATAAGCA | 0.268
